Results of several laboratories.
Parts stem from different laboratories: compare values within a part only. Substitutions count along the parent as printed.
Chain of UniProt Q8NE63 (whole entry, looked up): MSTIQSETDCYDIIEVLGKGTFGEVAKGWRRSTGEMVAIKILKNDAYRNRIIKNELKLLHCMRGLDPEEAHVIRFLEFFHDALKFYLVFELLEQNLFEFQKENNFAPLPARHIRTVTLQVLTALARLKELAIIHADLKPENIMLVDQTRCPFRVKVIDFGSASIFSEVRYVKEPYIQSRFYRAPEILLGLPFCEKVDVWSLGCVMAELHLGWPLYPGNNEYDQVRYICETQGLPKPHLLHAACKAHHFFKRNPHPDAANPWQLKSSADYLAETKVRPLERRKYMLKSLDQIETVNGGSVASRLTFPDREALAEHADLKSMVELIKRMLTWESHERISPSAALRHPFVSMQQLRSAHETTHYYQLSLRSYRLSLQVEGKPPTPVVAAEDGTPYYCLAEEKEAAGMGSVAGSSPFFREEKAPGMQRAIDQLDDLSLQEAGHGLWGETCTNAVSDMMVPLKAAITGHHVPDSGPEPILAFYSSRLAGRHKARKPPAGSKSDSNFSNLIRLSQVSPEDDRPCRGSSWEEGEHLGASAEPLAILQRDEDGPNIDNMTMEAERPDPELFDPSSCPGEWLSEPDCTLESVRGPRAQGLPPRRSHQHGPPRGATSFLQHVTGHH
Chain of UniProt P42336 (whole entry, unmodified, looked up): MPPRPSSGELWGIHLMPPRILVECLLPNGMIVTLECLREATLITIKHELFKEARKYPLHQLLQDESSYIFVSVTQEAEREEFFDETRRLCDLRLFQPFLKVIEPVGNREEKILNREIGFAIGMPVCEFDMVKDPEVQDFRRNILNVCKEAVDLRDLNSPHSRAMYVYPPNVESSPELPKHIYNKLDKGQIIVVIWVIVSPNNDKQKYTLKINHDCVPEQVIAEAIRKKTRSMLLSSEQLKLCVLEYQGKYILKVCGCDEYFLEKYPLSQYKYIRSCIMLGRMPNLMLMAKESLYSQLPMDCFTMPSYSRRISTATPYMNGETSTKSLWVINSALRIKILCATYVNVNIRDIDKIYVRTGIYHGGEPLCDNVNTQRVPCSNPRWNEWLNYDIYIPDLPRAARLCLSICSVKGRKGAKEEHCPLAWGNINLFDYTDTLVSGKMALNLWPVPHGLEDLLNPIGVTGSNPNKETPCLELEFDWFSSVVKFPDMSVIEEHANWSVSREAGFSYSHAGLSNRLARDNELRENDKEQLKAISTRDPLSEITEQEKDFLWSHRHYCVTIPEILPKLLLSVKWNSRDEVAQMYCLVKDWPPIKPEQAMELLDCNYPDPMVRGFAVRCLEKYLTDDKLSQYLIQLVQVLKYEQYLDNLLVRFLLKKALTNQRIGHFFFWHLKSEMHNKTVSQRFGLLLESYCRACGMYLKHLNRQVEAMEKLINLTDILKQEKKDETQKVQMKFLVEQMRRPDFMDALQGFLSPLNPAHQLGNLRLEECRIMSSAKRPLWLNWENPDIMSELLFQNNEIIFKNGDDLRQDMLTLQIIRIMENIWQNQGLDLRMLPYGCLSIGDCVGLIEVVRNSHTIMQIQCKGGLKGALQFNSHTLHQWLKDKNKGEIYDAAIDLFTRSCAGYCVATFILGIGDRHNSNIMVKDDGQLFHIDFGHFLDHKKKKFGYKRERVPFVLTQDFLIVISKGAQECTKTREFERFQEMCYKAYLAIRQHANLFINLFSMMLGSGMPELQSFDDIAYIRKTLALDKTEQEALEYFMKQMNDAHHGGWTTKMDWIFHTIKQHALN

Block 1
Target: CCNE1, cyclin fold, Cln2 fusion (human)
Technique: yeast growth competition, sequencing
Matrix: yeast
Setting: strong parent motif
Reference: not given
Direction: higher = stronger binding
Quantity: normalised enrichment score
Parent: ANKRD17 docking peptide (human); PSVRRQLFVTVVK
PSVRRQAFVTVVK [L7A]: 1
PSVRRALFVTVVK [Q6A]: 1.81
PSVRKQLLVTVVK [R5K F8L]: 1.05
PSARRQLFVTVVK [V3A]: 3.38
PSVRKQLFVTVVK [R5K]: 1.09
PSVRRQLFVTAVK [V11A]: 4.97
PSVARQLFVTVVK [R4A]: 2.16
PAVRRQLFVTVVK [S2A]: 3.97

Block 2
Target: Runt-related transcription factor 3, Runt domain (RUNX3, Homo sapiens, UniProt Q13761, residues 53-186)
Chain of UniProt Q13761 (53-186, looked up): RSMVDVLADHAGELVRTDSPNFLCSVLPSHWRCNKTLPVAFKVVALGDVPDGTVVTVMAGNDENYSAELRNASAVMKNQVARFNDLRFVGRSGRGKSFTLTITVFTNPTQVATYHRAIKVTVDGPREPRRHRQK
Technique: protein-binding microarray
Form: hairpin DNA
Matrix: in vitro
Tested at: not given
Setting: whole hairpin DNA, median over replicate spots
Reference: not given
Direction: higher = stronger binding
Quantity: median fluorescence
GAGGCCCAACCGCCGCAGCCTCCTGGCTGCGGCGGTTGGGCCTCACACTC: 6280 a.u.
GAGGCCTGTCGCGGCTGGCCTCCTGGCCAGCCGCGACAGGCCTCACACTC: 5830 a.u.
GAGGCCCAACCGCAAGAGCCTCCTGGCTCTTGCGGTTGGGCCTCACACTC: 10100 a.u.
GAGGCCTGTTGTGGCTGGCCTCCTGGCCAGCCACAACAGGCCTCACACTC: 4940 a.u.
CTCAGTTGTGTGGGCTGGACTCCTGTCCAGCCCACACAACTGAGACACTC (5mC at 37): 4170 a.u.
GAGGCCCCGCCGCAACAGCCTCCTGGCTGTTGCGGCGGGGCCTCACACTC (5mC at 36): 6340 a.u.
GAGGCCTGTCGCGGTTGGCCTCCTGGCCAACCGCGACAGGCCTCACACTC (5mC at 34): 6190 a.u.
CTCAGTTCTGCGGGCTGGACTCCTGTCCAGCCCGCAGAACTGAGACACTC (5mC at 11): 4450 a.u.

Further values, each from its own experiment
NS(=O)(=O)c1cc(NC(=O)C2(c3ccccc3Cl)CC2)ccc1Oc1cccc(Cl)c1
remaining binding (Phosphatidylinositol 4,5-bisphosphate 3-kinase catalytic subunit alpha isoform (PIK3CA, Homo sapiens, UniProt P42336, Q546K); cell-free assay, competition with immobilised ligand; 1 µM): 84%

Nc1nc(Nc2ccc(S(N)(=O)=O)cc2)nn1C(=S)Nc1c(F)cccc1F
remaining activity (Homeodomain-interacting protein kinase 4 (HIPK4, Homo sapiens, UniProt Q8NE63); enzyme activity, inhibitor; 0.5 µM; reference: control): 50.6%

A few entries again (block 1):
PSVRKQLFVTVVK [R5K]: 1.09
PAVRRQLFVTVVK [S2A]: 3.97
